Results pooled from the literature.
Compare with care: the assays were run in different laboratories. Numbers after ± are the reported error.
BCHE: Cholinesterase (BCHE, Homo sapiens, UniProt P06276)
Chain of UniProt P06276 (whole entry, looked up): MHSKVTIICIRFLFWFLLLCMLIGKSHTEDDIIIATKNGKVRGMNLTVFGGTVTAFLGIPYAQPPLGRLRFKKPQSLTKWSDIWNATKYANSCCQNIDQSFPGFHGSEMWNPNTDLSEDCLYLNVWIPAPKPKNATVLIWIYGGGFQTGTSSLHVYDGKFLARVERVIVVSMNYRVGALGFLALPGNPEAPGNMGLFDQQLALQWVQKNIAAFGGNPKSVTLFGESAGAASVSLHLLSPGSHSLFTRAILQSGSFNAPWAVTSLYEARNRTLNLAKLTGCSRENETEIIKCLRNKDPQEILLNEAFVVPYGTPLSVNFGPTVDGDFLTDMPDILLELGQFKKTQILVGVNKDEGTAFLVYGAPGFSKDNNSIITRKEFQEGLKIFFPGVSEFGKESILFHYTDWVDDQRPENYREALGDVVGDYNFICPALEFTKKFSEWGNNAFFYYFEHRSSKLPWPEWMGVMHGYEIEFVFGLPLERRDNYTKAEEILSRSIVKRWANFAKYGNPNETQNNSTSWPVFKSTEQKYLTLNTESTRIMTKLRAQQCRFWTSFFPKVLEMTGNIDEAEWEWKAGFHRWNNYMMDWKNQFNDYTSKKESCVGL
Chain of UniProt Q12769 (whole entry, looked up): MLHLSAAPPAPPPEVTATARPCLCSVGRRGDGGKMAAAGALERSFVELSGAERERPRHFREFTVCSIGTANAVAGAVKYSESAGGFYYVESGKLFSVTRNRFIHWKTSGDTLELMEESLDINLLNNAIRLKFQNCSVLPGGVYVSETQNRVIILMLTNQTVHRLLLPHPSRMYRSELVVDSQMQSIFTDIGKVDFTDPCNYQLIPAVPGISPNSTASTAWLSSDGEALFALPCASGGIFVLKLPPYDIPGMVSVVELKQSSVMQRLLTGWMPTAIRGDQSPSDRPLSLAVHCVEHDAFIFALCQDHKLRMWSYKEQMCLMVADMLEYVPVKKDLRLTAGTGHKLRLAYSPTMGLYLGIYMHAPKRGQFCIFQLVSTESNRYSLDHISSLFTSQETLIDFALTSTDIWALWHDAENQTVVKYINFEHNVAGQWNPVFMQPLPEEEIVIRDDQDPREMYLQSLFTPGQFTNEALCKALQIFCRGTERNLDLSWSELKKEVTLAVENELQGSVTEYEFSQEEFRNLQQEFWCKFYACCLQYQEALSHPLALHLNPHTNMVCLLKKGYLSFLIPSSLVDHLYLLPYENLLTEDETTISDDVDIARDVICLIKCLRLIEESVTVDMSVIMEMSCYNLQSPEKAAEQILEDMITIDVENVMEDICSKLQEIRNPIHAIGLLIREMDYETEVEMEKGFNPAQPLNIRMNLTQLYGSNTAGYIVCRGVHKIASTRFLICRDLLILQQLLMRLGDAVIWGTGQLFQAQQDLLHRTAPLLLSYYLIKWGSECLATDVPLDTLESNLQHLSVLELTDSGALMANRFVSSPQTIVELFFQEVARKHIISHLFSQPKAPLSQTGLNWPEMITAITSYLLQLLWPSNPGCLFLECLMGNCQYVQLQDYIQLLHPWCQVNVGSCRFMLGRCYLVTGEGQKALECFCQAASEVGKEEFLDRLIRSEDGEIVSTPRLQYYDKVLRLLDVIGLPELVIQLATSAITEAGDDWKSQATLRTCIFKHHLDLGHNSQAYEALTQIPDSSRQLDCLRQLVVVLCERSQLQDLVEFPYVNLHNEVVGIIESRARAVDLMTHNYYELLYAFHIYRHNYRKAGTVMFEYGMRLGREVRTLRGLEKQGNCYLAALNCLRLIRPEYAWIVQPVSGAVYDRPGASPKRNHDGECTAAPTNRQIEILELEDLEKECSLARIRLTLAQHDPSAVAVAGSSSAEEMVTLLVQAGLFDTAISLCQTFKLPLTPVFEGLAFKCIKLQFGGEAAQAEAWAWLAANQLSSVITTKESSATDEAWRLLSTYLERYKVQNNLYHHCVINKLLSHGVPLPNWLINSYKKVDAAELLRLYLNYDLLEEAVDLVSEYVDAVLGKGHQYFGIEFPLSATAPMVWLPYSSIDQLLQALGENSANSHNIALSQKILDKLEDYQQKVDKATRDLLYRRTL

Structure (SMILES)	target or system	assay	system	setting	how to read	quantity	value
Clc1ccc(-c2cc(Cl)c(Cl)cc2Cl)cc1Cl			fresh water	20 °C, SSP sampler, 100 µm		log K(PDMS-water)	5.99 ± 0.02
CCOC(=O)C1(CCOc2ccccc2)CCN(Cc2ccc(O)c(Cl)c2)CC1	BCHE	inhibitor, fluorometric				IC50	23.7 ± 12.9 µM
CC(C)c1nc(N(C)S(C)(=O)=O)nc(-c2ccc(F)cc2)c1/C=C/[C@@H](O)C[C@@H](O)CC(=O)O			healthy human subjects	oral, dose not given, study CL-0537 safety set		incidence of Fatigue	3.6%
CCN(CCO)CCCC(C)Nc1ccnc2cc(Cl)ccc12 (stereo not drawn)			newly diagnosed glioblastoma patients	oral, 200 mg/dose, grade 1, together with: radiotherapy and temozolomide		anemia patients	66%
C[C@H]1CN(c2n[nH]c3nc(N[C@H]4CC[C@H](NS(=O)(=O)CCC(F)(F)F)CC4)ncc23)CCO1	Nuclear pore complex protein Nup160 (Homo sapiens, UniProt Q12769)	biochemical				IC50	≥ 20 µM
CC(=O)c1c(C)c2cnc(Nc3ccc(C4CCN(CCS(C)(=O)=O)CC4)cn3)nc2n(C2CCCC2)c1=O			HR+/HER2- advanced breast cancer patients	oral, dose not given, all grades		platelet count decreased	27.2%
C=CCNc1c(O)cc2c(O)c1C[C@@H](C)C[C@H](OC)[C@H](O)[C@@H](C)/C=C(\C)[C@H](OC(N)=O)[C@@H](OC)/C=C\C=C(/C)C(=O)N2			unresectable or metastatic STS, GIST, other	intravenous, 90 mg/m^2		patients with sinus bradycardia	0%
Clc1cc(Cl)c(-c2ccc(Cl)c(Cl)c2Cl)cc1Cl			polyethylene-water partitioning	PCB compilation	relative to: maximum over minimum K	literature range factor	6
COc1cc2c(cc1OC)CN(CCc1ccc(NC(=O)c3cccc4c(=O)c5cccc(OC)c5[nH]c34)cc1)CC2			CD-1 mouse, male, plasma	intraperitoneal, 1 mg/kg		AUC(0-t)	965 ng·h/mL
CC(C)C[C@@H]1NC(=O)CNC(=O)[C@H](CC(N)=O)NC(=O)[C@H](CCCNC(=N)N)NC(=O)[C@H](CCCCN)NC(=O)[C@@H]2CSSC[C@@H]3NC(=O)[C@H]([C@@H](C)O)NC(=O)CNC(=O)CNC(=O)[C@H](C(C)C)NC(=O)[C@@H]4CSSC[C@H](NC(=O)[C@H]([C@@H](C)O)NC(=O)[C@H](CSSC[C@H](NC(=O)[C@H](C(C)C)NC(=O)[C@@H]5CCCN5C1=O)C(=O)NCC(=O)N[C@@H](CCC(=O)O)C(=O)N[C@@H]([C@@H](C)O)C(=O)N4)NC(=O)CNC(=O)[C@@H]1CCCN1C(=O)[C@H]([C@@H](C)O)NC(=O)[C@H](CC(N)=O)NC3=O)C(=O)N[C@@H](CO)C(=O)N[C@@H](Cc1c[nH]c3ccccc13)C(=O)N1CCC[C@H]1C(=O)N[C@@H](C(C)C)C(=O)N2		HPLC	ammonium bicarbonate 0.1 M	180 µM, 7 days, pH 9.0, 37 °C, deamidation stability		remaining peptide	44.1 ± 2.7%
CC[C@H](C)[C@@H]1NC(=O)[C@H](CCCNC(=N)N)NC(=O)C[C@@H](c2cccc3ccccc23)NC(=O)[C@@H]2CSSC[C@H](NC(=O)C[C@@H](c3cccc4ccccc34)NC(=O)[C@H](CCCNC(=N)N)NC(=O)[C@@H]3CCCN3C(=O)[C@@H]3CCCN3C1=O)C(=O)N[C@@H](Cc1ccccc1)C(=O)N1CCC[C@H]1C(=O)N[C@@H](CC(=O)O)C(=O)N[C@@H](CC(=O)O)C(=O)N[C@@H](Cc1ccccc1)C(=O)N2		two-compartment model	athymic nude mice (Foxn1)	intravenous, 6 mg/kg		terminal half-life	> 2400 min
CO[C@H]1C[C@@H]2CC[C@@H](C)[C@@](O)(O2)C(=O)C(=O)N2CCCC[C@H]2C(=O)O[C@H]([C@H](C)C[C@@H]2CC[C@@H](OC(=O)NCCOCCOCCOCCOCCOCCOCCOCCOCCC(=O)N3CCc4cc(Cn5nc(-c6ccc7oc(N)nc7c6)c6c(N)ncnc65)ccc4C3)[C@H](OC)C2)C[C@@H](O)[C@H](C)/C=C(\C)[C@@H](O)[C@@H](OC)C(=O)[C@H](C)C[C@H](C)/C=C/C=C/C=C/1C			patients with advanced solid tumours	intravenous, 1.6 mg/3 mg weekly, grade ≥3		incidence of Anemia TEAE	40%
O[C@H]1CCCN[C@@H]1CCCn1cnc2c(Cl)c(Cl)ccc21			healthy CYP2D6 intermediate metabolizers, plasma	oral, 150 mg multiple doses		median AUCtau	1510 ng·h/mL
C[C@]1(CO)Cc2ncn(-c3ccc(C#N)c(Cl)c3)c2C(=O)O1			healthy Japanese adults, plasma	80 mg single dose		AUC(0-inf)	22 µM·h
CNC(=O)c1cc(Oc2ccc(NC(=O)Nc3cc(C(C)(C)C)nn3-c3ccc4ncccc4c3)c(F)c2)ccn1		pulmonary oedema, NCI CTC v3.0	human patients	oral, all dose levels		related SAE	2%
O=C(O)CCCOc1ccc(F)cc1-c1cc(-c2ccccc2C(F)(F)F)n(-c2ccccc2)n1		measured: Basophils	Crl:CD(SD) rats, female, blood	iv, 25 µg/kg, 14 days		leukocyte differential	0.2 ± 0.1%
O=C(Nc1ccccc1)C1CCN(C(=O)Oc2cccnc2)CC1			healthy women	oral, 60 mg, 7 days		adverse event Agitation	0%

Structure (SMILES)	target or system	assay	system	setting	how to read	quantity	value
COc1ccc(-c2c(-c3ccc(C#N)c(F)c3)nc(N3CCC(N)CC3)n(C)c2=O)cc1F		measured: Thrombocytopenia	human patients	oral, dose not given, grade 3 to 4, dose escalation, NG		treatment-related adverse event incidence	20%
N#C[C@H](O[C@@H]1O[C@H](CO)[C@@H](O)[C@H](O)[C@H]1O)c1ccccc1			Sprague Dawley rat, plasma	oral, 10 g lyophilized powder/kg, high dose		Vz/F	25.7 ± 6.97 L/kg
Clc1cc(Cl)c(-c2c(Cl)cc(Cl)cc2Cl)c(Cl)c1			fresh water	20 °C		log K(PDMS-water)	6.6 ± 0.05
CC(C)OC(=O)c1cc2c(OCC(O)CNC(C)(C)C)cccc2[nH]1 (stereo not drawn)	BCHE	inhibitor		with Triton		IC50	1.34 ± 0.34 µM
CC(C)(O)c1cc(Nc2cc(Oc3cn(C4CC4)nc3C3CCOCC3)ccn2)ccn1		measured: Nausea	Japanese patients with advanced cancer	oral, dose not given, any grade		treatment-emergent adverse events	44%
C[C@@H](NC(=O)N1C(=O)[C@H](Cc2ccnc(N)c2)[C@H]1C(=O)O)C1CCCCC1			healthy adult Chinese volunteers	continuous intravenous infusion, 0.3 mg/kg/h, 5-day infusion, CTCAE 5.0 grading		incidence of decreased hemoglobin	0%
CC1(C)[C@H](C(=O)O[C@H](C#N)c2cccc(Oc3ccccc3)c2)[C@@H]1C=C(Br)Br			pooled human liver cytosol			CLint	1.09 mL/min/mg
Cc1cccc(Cn2nc(C3CC3)c3c(NC(=O)c4cnc5cc(OCCN6CCN(C)CC6)ccn45)cccc32)n1		CTCAE v4.03, measured: AST increased	advanced solid tumour patients	oral, dose not given, all cohorts, together with: pembrolizumab IV every 3 weeks		all-cause adverse events	36.8%
Nc1nc(N)c2nc(-c3ccccc3)c(N)nc2n1	Plasmodium falciparum		HB3			IC50	10 µM
CN1CC[C@@H](c2c(O)cc(O)c3c(=O)cc(-c4ccc(C(F)(F)F)cc4Cl)oc23)[C@@H]1CO		measured: grade 3 febrile neutropenia	relapsed or refractory haematologic malignancy patients	oral, phase dose escalation, all doses		patients with adverse event	7.5%
COc1cc2c(Oc3ccc4[nH]c(C)cc4c3F)ccnc2cc1OCC1(N)CC1			paediatric recurrent refractory sarcoma	8 mg		grade 1 or 2 Myalgia	50%
CCS(=O)(=O)Nc1ccc(Oc2ccc(F)cc2F)c(-c2cn(C)c(=O)c3[nH]ccc23)c1		fibrin D-dimer increased, discontinuation	human, relapsed/refractory AML	oral, dose not given		treatment-emergent adverse events	0%
COc1cc2nc(N3CCN(C(=O)C4COc5ccccc5O4)CC3)nc(N)c2cc1OC (stereo not drawn)	Plasmodium falciparum		Dd2			IC50	10 µM
CN1CCN(c2ccc(Nc3nccc(-c4ccc5ccccc5c4)n3)cc2C(F)(F)F)CC1			Danio rerio embryos	5 µM, 5 d		toxicity	100%
Cc1ccc(F)c2cc(C(=O)N[C@@H]3CCC[C@H](N4CC[C@H](N(C)S(C)(=O)=O)C4)C3)[nH]c12			CD1 mouse, plasma	oral, 30 mg/kg, 1 h		plasma concentration	548 ng/mL
CCCCCCCCCCCCCCCC(=O)N[C@@H](CCC(=O)NCCCC[C@H](NC(=O)[C@H](CC(=O)O)NC(=O)[C@H](CO)NC(=O)[C@@H](NC(=O)[C@H](Cc1ccccc1)NC(=O)[C@@H](NC(=O)CNC(=O)[C@H](CCC(N)=O)NC(=O)[C@H](CO)NC(=O)[C@@H](N)Cc1c[nH]cn1)[C@@H](C)O)[C@@H](C)O)C(=O)N[C@@H](CO)C(=O)N[C@@H](CCC(=O)O)C(=O)N[C@@H](Cc1ccc(O)cc1)C(=O)N[C@@H](CC(C)C)C(=O)N[C@@H](CC(=O)O)C(=O)N[C@@H](CO)C(=O)N[C@@H](CCC(=O)O)C(=O)N[C@@H](CCCNC(=N)N)C(=O)N[C@@H](C)C(=O)N[C@@H](CCCNC(=N)N)C(=O)N[C@@H](CC(=O)O)C(=O)N[C@@H](Cc1ccccc1)C(=O)N[C@H](C(=O)N[C@@H](C)C(=O)N[C@@H](Cc1c[nH]c2ccccc12)C(=O)N[C@@H](CC(C)C)C(=O)N[C@@H](CCC(=O)O)C(=O)N[C@@H](C)C(=O)NCC(=O)NCC(=O)O)C(C)C)C(=O)O		measured: Nausea	humans CrCl 20 to 30 mL/min	subcutaneous, 100 µg single dose		treatment-related adverse events	37.5%
